Experimental data of several laboratories.
Lines come from different studies, so protocols differ. Numbers after ± are the reported error.

`COc1ncccc1-c1cnn2ccc(N3CCN(C(=O)OC(C)C)CC3)nc12` has a drug concentration of 520 nM (mouse nerve ligation model, plasma; oral, 3 mg/kg, 180 min after last dose, repeat dosing day 1).
`COc1cc(Nc2ncc(F)c(Nc3ccc4c(n3)NC(=O)C(C)(C)O4)n2)cc(OC)c1OC` gave an IC50 of over 10 µM (CCR2 (Homo sapiens, UniProt P41597)).
`C[C@@H]1NC(=O)[C@H](CCCCNC(=O)CO/N=C/C(=O)NCCCC[C@@H]2NC(=O)[C@@H](Cc3ccccc3)NC(=O)[C@H](CC(=O)O)NC(=O)CNC(=O)[C@H](CCCNC(=N)N)NC2=O)NC(=O)CNC(=O)[C@@H]2CCCN2C(=O)[C@H](CCCCNC(=O)CO/N=C/C(=O)NCCCC[C@@H]2NC(=O)[C@@H](Cc3ccccc3)NC(=O)[C@H](CC(=O)O)NC(=O)CNC(=O)[C@H](CCCNC(=N)N)NC2=O)NC(=O)[C@H](CCCCNC(=O)CCNC(=O)CCNC(=O)CCNC(=O)[C@H](CCCCN)NC(=O)[C@H](Cc2ccccc2)NC(=O)CNC(=O)CN2CCCNCCNCCCNCC2)NC(=O)[C@H](CCCCNC(=O)CO/N=C/C(=O)NCCCC[C@@H]2NC(=O)[C@@H](Cc3ccccc3)NC(=O)[C@H](CC(=O)O)NC(=O)CNC(=O)[C@H](CCCNC(=N)N)NC2=O)NC(=O)CNC(=O)[C@@H]2CCCN2C(=O)[C@H](CCCCNC(=O)CO/N=C/C(=O)NCCCC[C@@H]2NC(=O)[C@@H](Cc3ccccc3)NC(=O)[C@H](CC(=O)O)NC(=O)CNC(=O)[C@H](CCCNC(=N)N)NC2=O)NC1=O` [copper-64 labelled] gave a tissue uptake of 2.55 ± 0.3 %ID/g (biodistribution after PET; mouse, U-87 MG tumour xenograft, tumor; intravenous, 24 h).
`COc1cc2c(Oc3ccc4[nH]c(C)cc4c3F)ccnc2cc1OCC1(N)CC1`: “mouth ulcer incidence” 0% (paediatric refractory sarcoma patients; 10 mg).
With `O=c1ccc2cc3ccoc3cc2o1` the accuracy was 87.3% (post-procedure stability; rat plasma; 8 ng/mL, 1 h, room temperature).
`C=CC(=O)N1CC[C@H](n2nc(C#Cc3cc(OC)cc(OC)c3)c3c(N)ncnc32)C1`: “adverse drug reaction incidence” 16.3% (patients with advanced solid tumours; oral, dose not given, Nausea, any grade, QD, all patients).
With `CC(C)C[C@H](NC(=O)[C@H](CCCCN)NC(=O)OCC1c2ccccc2-c2ccccc21)C(=O)N[C@H](C(=O)N[C@@H](Cc1ccccc1)C(=O)N[C@@H](Cc1ccccc1)C(=O)N[C@@H](CCCCN)C(=O)NCC(=O)N[C@@H](Cc1ccccc1)C(=O)N[C@@H](C)C(=O)N[C@@H](Cc1c[nH]c2ccccc12)C(=O)N[C@@H](CC(N)=O)C(=O)N[C@H](C(=O)N[C@H]1CSSC[C@@H](C(=O)N[C@@H](Cc2c[nH]cn2)C(=O)N[C@@H](CCCNC(=N)N)C(=O)N[C@@H](CCCNC(=N)N)C(=O)N[C@@H](C)C(=O)N[C@@H](CC(N)=O)C(N)=O)NC(=O)[C@H](C(C)C)NC(=O)[C@H](CCCNC(=N)N)NC(=O)[C@H](C(C)C)NC(=O)CNC(=O)[C@H](CC(N)=O)NC(=O)[C@H](CCCNC(=N)N)NC(=O)[C@H](Cc2ccc(O)cc2)NC(=O)[C@H](C(C)C)NC1=O)C(C)C)C(C)C` the total protein was 53.5 ± 2.12 g/L (ICR mouse, serum; ip, 10 mg/kg, 3 d dosing, blood day 5).
For `O=C1Nc2cc3[nH]nc(-c4ccncc4)c3cc2CN1Cc1ccccc1`, “patients with acneiform dermatitis” read 0% (CTCAE v4.03; advanced solid tumour patients; intravenous, 4.8 mg/kg).
`N#Cc1cc(NC(=O)[C@H]2c3ccccc3C(=O)N(CC(F)(F)F)[C@@H]2c2cccnc2)ccc1F` — result for “well tolerated dose”: at most 1000 mg/kg (Beagle dog, both sexes; oral, 3 days).
`CCCCCCCCCCCCCCCC(=O)N[C@@H](CCC(=O)NCCCC[C@H](NC(=O)[C@H](CC(=O)O)NC(=O)[C@H](CO)NC(=O)[C@@H](NC(=O)[C@H](Cc1ccccc1)NC(=O)[C@@H](NC(=O)CNC(=O)[C@H](CCC(N)=O)NC(=O)[C@H](CO)NC(=O)[C@@H](N)Cc1c[nH]cn1)[C@@H](C)O)[C@@H](C)O)C(=O)N[C@@H](CO)C(=O)N[C@@H](CCC(=O)O)C(=O)N[C@@H](Cc1ccc(O)cc1)C(=O)N[C@@H](CC(C)C)C(=O)N[C@@H](CC(=O)O)C(=O)N[C@@H](CO)C(=O)N[C@@H](CCC(=O)O)C(=O)N[C@@H](CCCNC(=N)N)C(=O)N[C@@H](C)C(=O)N[C@@H](CCCNC(=N)N)C(=O)N[C@@H](CC(=O)O)C(=O)N[C@@H](Cc1ccccc1)C(=O)N[C@H](C(=O)N[C@@H](C)C(=O)N[C@@H](Cc1c[nH]c2ccccc12)C(=O)N[C@@H](CC(C)C)C(=O)N[C@@H](CCC(=O)O)C(=O)N[C@@H](C)C(=O)NCC(=O)NCC(=O)O)C(C)C)C(=O)O`: “treatment-related adverse events” 33.3% (refers to: Nausea; humans CrCl below 20 mL/min; subcutaneous, 100 µg single dose).
For `COC[C@@H](CC(C)C)NC(=O)c1ccc(C)c(C)c1`, “PCE to total erythrocyte ratio” read 0.541 (Hsd:ICR (CD-1) mouse, male, bone marrow; oral, 2000 mg/kg, 24 h).
`O=c1nc(NO)ccn1[C@@H]1O[C@H](CO)[C@@H](O)[C@H]1O` has an autosampler stability of 102 ± 1.33% (rat placenta dialysate; 1000 ng/mL, 6 h, 10 °C, high QC concentration, together with: molnupiravir).
For `CC(C)CC(=O)OC[C@H]1O[C@@](C#N)(c2ccc3c(N)ncnn23)[C@H](O)[C@@H]1O`, the fraction bound was 0.816 (human plasma; 90 µM).
`CC[C@H](C)[C@H](NC(=O)[C@H](CO)NC(=O)[C@H](CC(N)=O)NC(=O)[C@H](CC(C)C)NC(=O)[C@H](Cc1ccc(O)cc1)NC(=O)[C@H](CCCCN)NC(=O)[C@H](CCCCN)NC(=O)[C@@H](NC(=O)[C@H](C)NC(=O)[C@H](CCSC)NC(=O)[C@H](CCC(N)=O)NC(=O)[C@H](CCCCN)NC(=O)[C@H](CCCN=C(N)N)NC(=O)[C@H](CC(C)C)NC(=O)[C@H](CCCN=C(N)N)NC(=O)[C@@H](NC(=O)[C@H](Cc1ccc(O)cc1)NC(=O)[C@H](CC(N)=O)NC(=O)[C@H](CC(=O)O)NC(=O)[C@@H](NC(=O)[C@H](Cc1ccccc1)NC(=O)[C@@H](NC(=O)[C@H](C)NC(=O)[C@H](CC(=O)O)NC(=O)[C@H](CO)NC(=O)[C@@H](N)Cc1c[nH]cn1)C(C)C)[C@@H](C)O)[C@@H](C)O)C(C)C)C(=O)N[C@@H](CC(C)C)C(=O)N[C@@H](CC(N)=O)C(N)=O` — result for “maximum tolerated dose”: 175 mg/kg (BALB/c mice; acute, unformulated).
The measured concentration of `O=C(O)CCC(CP(=O)(O)O)C(=O)O` (centres unmarked) is reported as 7.66 ± 0.33 µg/mL (rat plasma; 8 µg/mL, freeze-thaw cycle 3 at -80 °C).
The AUC(0-inf) of `CCC[C@@](N)(CO)CCc1ccc(OCCCCCC(C)C)cc1` is reported as 22.8 µM·h (dog, male hounds, plasma; oral capsule, 20 mg/kg, geometric mean).
For `O=C(Nc1ccccc1)C1CCN(C(=O)Oc2cccnc2)CC1`, “subjects with adverse event” read 7.7% (refers to: skin disorders; healthy women; oral, 100 mg, 9 days).
`CCc1ccc(CC/C=C/c2ccc3c(c2)C(=O)CC3)cc1`: “LDH serum activity” 370 U/L (Sprague-Dawley rat, female; oral, 450 mg/kg/day, 14 days).
`C#CC[C@H](NC(=O)[C@H](Cc1ccccc1)NC(=O)CCNC(=S)Nc1ccc2c(c1)C(=O)OC21c2ccc(O)cc2Oc2cc(O)ccc21)C(=O)N[C@@H](C)C(=O)N[C@@H](CC(C)C)C(=O)N[C@@H](CC(=O)O)C(=O)N[C@@H](Cc1c[nH]c2ccccc12)C(=O)N[C@@H](CO)C(=O)N[C@@H](Cc1c[nH]c2ccccc12)C(=O)N[C@@H](CC(C)C)C(=O)N[C@@H](CCC(N)=O)C(=O)N[C@H](C(=O)N[C@@H](CCC(=O)O)C(N)=O)[C@@H](C)O` has a hydrodynamic diameter of 494 ± 144 nm (dynamic light scattering; PBS/DMSO; 125 nM).
`CC(C)c1nc(N(C)S(C)(=O)=O)nc(-c2ccc(F)cc2)c1/C=C/[C@@H](O)C[C@@H](O)CC(=O)O` — result for “incidence of skin disorders”: 0% (healthy human subjects; oral, dose not given, study CL-0537 safety set).
Under “medical device site reaction TEAE”, `Cn1c(-c2ccc(C(N)=O)cc2F)nnc1C(C)(C)Oc1c(F)cc(Cl)cc1F` is recorded as 0% (human; oral, 1 mg, single ascending dose).
`CN(C(=O)n1cnc(-c2ccc[n+]([O-])c2)c1)C1CCCCC1` has a concentration of 10.4 ± 1.4 ng/g (Wistar rat, cerebral cortex; oral, 10 mg/kg, 24 h, single dose).
`CC(C)(O)c1cc(Nc2cc(Oc3cn(C4CC4)nc3C3CCOCC3)ccn2)ccn1` — result for “treatment-emergent adverse events”: 0% (Anemia; advanced cancer patients, dose escalation; oral, dose not given, 3 weeks on/1 off, all causality grade ≥3).
`CC(C)(C)c1cc(-n2nc3ccccc3n2)c(O)c(C(C)(C)C)c1`: “mean daily dermal uptake” 2.43 ng/kg body weight/day (exposure assessment; human, age 1-2 years; sunscreen).
With `COc1ccc2c(c[n+](C)c3c4cc5c(cc4ccc23)OCO5)c1OC` the MRT(0-inf) was 4.38 h (LC-MS/MS; rat, plasma; dose not given).
With `CC[C@H](C)[C@H](NC(=O)[C@H](Cc1ccccc1)NC(=O)[C@H](CCC(=O)O)NC(=O)[C@H](CCCNC(=N)N)NC(=O)[C@H](C)NC(=O)[C@H](C)NC(=O)[C@H](CCC(N)=O)NC(=O)[C@H](CCC(=O)O)NC(=O)[C@H](CCC(=O)O)NC(=O)[C@H](CC(C)C)NC(=O)[C@H](Cc1ccc(O)cc1)NC(=O)[C@H](CO)NC(=O)[C@H](CO)NC(=O)[C@@H](NC(=O)[C@H](CC(=O)O)NC(=O)[C@H](CO)NC(=O)[C@@H](NC(=O)[C@H](Cc1ccccc1)NC(=O)[C@@H](NC(=O)CNC(=O)[C@H](CCC(=O)O)NC(=O)[C@H](C)NC(=O)CCc1c[nH]cn1)[C@@H](C)O)[C@@H](C)O)C(C)C)C(=O)N[C@@H](C)C(=O)N[C@@H](Cc1c[nH]c2ccccc12)C(=O)N[C@@H](CC(C)C)C(=O)N[C@H](C(=O)N[C@@H](CCCNC(=N)N)C(=O)NCC(=O)N[C@@H](CCCNC(=N)N)C(=O)N[C@@H](CCCCNC(=O)COCCOCCNC(=O)COCCOCCNC(=O)CC[C@H](NC(=O)CCCCCCCCCCCCCCCCC(=O)O)C(=O)O)C(=O)NCC(=O)NCC(=O)N[C@@H](CO)C(=O)N[C@@H](CCCCNc1c(NCCCCCN(O)C(=O)CCC(=O)NCCCCCN(O)C(=O)CCC(=O)NCCCCCN(O)C(C)=O)c(=O)c1=O)C(=O)O)C(C)C` [zirconium-89 labelled] the tissue uptake was 0.03 %ID/g (rat, duodenum content; intravenous, 3 nmol/kg, 168 h).
`Cn1cncc1-c1c(F)cncc1NC(=O)c1c(N)nn2cc(F)cnc12` — result for “grade ≥3 creatinine increase incidence”: 0% (human patients; oral, 130 mg once daily).
`NC(=O)[C@H]1CCN(c2ncnc(N)c2F)C[C@@H]1N1CCC[C@@H](Nc2cc(Cl)cc(C(F)(F)F)c2)C1=O` — result for “grade ≥3 platelet decrease”: 0% (B-cell malignancy patients; oral, 246 mg twice daily, dose).
The TRAE incidence of `CO[C@H]1C[C@@H]2CC[C@@H](C)[C@@](O)(O2)C(=O)C(=O)N2CCCC[C@H]2C(=O)O[C@H]([C@H](C)C[C@@H]2CC[C@@H](OC(=O)NCCOCCOCCOCCOCCOCCOCCOCCOCCC(=O)N3CCc4cc(Cn5nc(-c6ccc7oc(N)nc7c6)c6c(N)ncnc65)ccc4C3)[C@H](OC)C2)C[C@@H](O)[C@H](C)/C=C(\C)[C@@H](O)[C@@H](OC)C(=O)[C@H](C)C[C@H](C)/C=C/C=C/C=C/1C` is reported as 66.7% (phase 1 dose escalation, refers to: decreased appetite; advanced solid tumour patients; intravenous, 6 mg weekly, any grade).
For `CC(C)[C@@H]1NC(=O)CNC(=O)[C@H](CC(N)=O)NC(=O)[C@H](CCCNC(=N)N)NC(=O)[C@H](Cc2ccc(O)cc2)NC(=O)[C@H](C(C)C)NC(=O)[C@@H](NC(=O)[C@@H](NC(=O)[C@H](CC(N)=O)NC(=O)[C@H](Cc2c[nH]c3ccccc23)NC(=O)[C@H](C)NC(=O)[C@H](Cc2ccccc2)NC(=O)CN)C(C)C)CSSC[C@@H](C(=O)N[C@@H](Cc2c[nH]cn2)C(=O)N[C@@H](CCCNC(=N)N)C(=O)N[C@@H](CCCNC(=N)N)C(=O)N[C@@H](C)C(=O)N[C@@H](CC(N)=O)C(N)=O)NC(=O)[C@H](C(C)C)NC(=O)[C@H](CCCNC(=N)N)NC1=O`, “secondary structure content” read 5.81% (circular dichroism, refers to: α-Helix; PBS; 80 µM, pH 7.4).
Under “adverse events causing discontinuation”, `CC(C)n1c(C2CCNCC2)nc2c([N+](=O)[O-])c(Br)c(Br)cc21` is recorded as 2% (refers to: Nausea; AML patients; 125 mg).
`O=c1cc(-c2ccc(O)c(O)c2)oc2cc(O)cc(O)c12`: “amount excreted in urine” 92.9 ± 32.2 ng (Sprague-Dawley rat, male, lean, urine; oral, 100 mg/kg of neohesperidin, 48 h, after β-glucuronidase/sulfatase, total).
